Results of several laboratories.
Numbered parts are unrelated; each lists some results of a single study.
Chain of UniProt Q12851 (whole entry, looked up): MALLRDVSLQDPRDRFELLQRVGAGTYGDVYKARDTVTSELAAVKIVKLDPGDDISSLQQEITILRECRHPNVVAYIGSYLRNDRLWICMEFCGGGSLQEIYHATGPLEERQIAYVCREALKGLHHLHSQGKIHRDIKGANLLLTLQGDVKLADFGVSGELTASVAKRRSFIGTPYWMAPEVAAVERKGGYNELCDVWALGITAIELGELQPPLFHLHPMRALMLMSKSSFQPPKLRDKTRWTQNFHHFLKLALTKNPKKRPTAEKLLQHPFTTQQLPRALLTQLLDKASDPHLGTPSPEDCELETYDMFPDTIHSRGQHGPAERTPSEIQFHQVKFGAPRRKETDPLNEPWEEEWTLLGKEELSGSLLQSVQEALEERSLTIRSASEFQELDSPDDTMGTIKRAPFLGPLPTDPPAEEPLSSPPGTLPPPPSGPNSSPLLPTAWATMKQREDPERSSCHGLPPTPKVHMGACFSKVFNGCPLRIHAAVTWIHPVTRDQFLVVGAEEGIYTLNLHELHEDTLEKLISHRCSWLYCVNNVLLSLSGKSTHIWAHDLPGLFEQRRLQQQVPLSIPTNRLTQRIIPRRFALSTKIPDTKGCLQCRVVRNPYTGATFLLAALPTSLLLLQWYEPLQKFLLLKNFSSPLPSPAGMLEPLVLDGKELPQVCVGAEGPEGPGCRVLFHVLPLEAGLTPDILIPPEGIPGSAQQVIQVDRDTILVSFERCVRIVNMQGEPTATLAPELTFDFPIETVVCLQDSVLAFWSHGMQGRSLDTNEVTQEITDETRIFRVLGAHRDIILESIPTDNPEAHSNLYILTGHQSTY
Chain of UniProt O43293 (whole entry, looked up): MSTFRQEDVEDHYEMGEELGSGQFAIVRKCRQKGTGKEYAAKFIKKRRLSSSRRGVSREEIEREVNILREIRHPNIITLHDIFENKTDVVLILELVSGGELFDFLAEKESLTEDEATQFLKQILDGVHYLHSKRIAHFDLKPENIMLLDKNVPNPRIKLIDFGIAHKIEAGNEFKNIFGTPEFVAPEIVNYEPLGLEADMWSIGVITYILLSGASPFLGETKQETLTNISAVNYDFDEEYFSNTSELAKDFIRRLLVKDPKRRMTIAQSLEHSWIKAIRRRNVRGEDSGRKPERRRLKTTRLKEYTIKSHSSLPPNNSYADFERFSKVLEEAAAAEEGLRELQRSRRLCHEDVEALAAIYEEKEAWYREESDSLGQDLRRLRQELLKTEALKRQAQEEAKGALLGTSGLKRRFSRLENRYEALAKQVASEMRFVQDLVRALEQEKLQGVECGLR
Chain of UniProt Q02779 (whole entry, looked up): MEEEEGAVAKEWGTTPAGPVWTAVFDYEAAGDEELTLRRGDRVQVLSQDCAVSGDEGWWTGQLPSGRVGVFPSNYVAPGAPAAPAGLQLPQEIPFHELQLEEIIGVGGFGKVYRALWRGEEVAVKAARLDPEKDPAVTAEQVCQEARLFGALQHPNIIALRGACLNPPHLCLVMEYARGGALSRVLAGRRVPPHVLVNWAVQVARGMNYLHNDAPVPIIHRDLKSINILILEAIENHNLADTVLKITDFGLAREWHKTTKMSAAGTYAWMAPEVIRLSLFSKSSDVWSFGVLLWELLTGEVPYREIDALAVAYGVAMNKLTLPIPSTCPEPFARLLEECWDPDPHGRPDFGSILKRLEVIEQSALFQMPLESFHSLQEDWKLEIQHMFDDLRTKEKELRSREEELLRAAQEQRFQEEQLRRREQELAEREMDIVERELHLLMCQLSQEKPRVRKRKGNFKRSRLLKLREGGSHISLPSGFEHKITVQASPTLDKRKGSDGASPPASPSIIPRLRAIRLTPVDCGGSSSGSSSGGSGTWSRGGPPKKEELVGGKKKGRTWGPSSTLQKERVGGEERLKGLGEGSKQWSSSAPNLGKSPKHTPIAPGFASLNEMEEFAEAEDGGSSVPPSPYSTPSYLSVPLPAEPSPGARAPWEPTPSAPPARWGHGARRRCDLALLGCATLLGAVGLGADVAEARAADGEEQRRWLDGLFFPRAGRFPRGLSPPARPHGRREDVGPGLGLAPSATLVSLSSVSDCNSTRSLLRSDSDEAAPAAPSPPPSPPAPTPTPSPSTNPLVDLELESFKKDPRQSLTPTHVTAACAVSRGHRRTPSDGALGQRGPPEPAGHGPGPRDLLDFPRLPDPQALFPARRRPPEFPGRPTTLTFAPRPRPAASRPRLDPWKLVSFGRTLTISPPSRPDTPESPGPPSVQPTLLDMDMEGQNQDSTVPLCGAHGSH
Chain of UniProt Q96Q40 (whole entry, looked up): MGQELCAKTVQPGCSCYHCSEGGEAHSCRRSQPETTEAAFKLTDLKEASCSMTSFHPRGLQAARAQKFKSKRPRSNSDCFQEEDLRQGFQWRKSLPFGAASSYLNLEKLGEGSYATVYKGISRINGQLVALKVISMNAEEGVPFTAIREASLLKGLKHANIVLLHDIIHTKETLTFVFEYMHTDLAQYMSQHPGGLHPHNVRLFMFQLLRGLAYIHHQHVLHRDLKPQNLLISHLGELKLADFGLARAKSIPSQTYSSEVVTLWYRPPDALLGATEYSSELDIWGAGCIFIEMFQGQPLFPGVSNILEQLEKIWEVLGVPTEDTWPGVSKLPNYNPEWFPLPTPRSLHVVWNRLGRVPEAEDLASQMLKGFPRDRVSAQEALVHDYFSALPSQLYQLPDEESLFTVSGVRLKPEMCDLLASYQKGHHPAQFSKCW
Chain of UniProt P07333 (whole entry, looked up): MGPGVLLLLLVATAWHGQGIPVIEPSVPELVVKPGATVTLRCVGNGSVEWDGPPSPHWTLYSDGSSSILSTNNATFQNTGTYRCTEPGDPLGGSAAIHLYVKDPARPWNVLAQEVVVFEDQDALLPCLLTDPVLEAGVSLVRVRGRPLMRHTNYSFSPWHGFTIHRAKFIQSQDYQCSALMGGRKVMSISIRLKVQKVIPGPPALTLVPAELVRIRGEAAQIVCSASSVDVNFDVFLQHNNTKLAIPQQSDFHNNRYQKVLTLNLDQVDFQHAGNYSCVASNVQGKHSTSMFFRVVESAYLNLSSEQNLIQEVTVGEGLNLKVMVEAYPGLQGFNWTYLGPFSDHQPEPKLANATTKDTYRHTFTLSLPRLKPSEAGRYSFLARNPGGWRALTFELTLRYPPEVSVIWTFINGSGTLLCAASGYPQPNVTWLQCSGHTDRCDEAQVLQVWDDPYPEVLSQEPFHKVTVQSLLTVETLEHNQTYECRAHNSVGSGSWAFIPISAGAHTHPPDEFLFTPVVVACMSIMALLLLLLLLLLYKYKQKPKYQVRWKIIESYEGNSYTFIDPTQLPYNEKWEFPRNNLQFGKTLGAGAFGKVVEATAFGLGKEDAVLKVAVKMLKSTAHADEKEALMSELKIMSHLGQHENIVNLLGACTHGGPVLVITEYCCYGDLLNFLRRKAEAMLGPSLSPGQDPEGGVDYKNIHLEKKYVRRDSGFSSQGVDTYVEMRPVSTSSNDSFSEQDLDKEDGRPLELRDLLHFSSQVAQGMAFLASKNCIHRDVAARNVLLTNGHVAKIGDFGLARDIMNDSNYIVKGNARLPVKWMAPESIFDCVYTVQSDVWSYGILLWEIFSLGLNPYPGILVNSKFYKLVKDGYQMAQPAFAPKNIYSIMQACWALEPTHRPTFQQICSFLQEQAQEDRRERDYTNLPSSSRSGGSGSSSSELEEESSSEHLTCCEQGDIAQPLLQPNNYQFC
Chain of UniProt P07948 (whole entry, looked up): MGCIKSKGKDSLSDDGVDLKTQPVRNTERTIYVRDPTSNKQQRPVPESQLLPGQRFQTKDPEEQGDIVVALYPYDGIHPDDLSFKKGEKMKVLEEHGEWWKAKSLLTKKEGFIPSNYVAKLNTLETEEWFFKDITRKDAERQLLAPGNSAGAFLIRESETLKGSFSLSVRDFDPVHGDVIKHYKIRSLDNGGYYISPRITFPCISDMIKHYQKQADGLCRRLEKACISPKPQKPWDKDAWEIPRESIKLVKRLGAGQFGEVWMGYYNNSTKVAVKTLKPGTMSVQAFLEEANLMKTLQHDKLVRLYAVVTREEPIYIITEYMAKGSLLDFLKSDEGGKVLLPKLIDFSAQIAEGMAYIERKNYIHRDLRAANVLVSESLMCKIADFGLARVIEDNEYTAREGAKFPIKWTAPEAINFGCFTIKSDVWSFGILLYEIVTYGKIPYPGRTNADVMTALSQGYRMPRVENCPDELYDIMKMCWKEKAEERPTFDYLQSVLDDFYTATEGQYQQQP
Chain of UniProt Q9HBH9 (whole entry, looked up): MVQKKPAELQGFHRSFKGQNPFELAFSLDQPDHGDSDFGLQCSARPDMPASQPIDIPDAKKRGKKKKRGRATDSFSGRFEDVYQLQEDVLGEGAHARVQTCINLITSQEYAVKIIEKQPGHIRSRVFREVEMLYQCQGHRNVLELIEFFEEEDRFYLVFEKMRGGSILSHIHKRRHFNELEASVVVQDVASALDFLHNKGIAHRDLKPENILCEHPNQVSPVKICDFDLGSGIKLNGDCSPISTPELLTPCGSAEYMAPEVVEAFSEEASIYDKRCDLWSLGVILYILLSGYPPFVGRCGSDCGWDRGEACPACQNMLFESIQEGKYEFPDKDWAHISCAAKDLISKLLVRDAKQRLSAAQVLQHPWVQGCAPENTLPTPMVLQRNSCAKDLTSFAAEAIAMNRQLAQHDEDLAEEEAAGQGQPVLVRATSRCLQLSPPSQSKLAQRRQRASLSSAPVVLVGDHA
Chain of UniProt P49137 (whole entry, looked up): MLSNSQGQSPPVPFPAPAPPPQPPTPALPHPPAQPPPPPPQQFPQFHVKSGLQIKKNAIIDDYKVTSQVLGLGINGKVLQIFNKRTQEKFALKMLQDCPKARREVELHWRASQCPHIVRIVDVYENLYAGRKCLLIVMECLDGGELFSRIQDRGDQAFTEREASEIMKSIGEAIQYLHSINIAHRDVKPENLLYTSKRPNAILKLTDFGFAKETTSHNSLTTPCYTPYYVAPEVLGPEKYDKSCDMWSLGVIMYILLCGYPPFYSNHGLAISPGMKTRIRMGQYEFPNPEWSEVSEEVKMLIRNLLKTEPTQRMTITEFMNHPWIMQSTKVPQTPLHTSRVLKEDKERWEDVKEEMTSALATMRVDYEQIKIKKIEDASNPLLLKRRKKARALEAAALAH

Sample 1 — effect on: cell-free assay; technique: competition with immobilised ligand; tested at: 1 µM
Compound: Cc1c(NC(=O)c2cc(C(N)=O)nc3cc(F)ccc23)c(C(F)(F)F)nn1Cc1ccc(C(C)(C)C)cc1
target	remaining binding
Dual serine/threonine and tyrosine protein kinase (DSTYK, Homo sapiens, UniProt Q6XUX3)	89%
Serine/threonine-protein kinase WNK4 (WNK4, Homo sapiens, UniProt Q96J92)	100%
Tyrosine-protein kinase JAK3, JH1 (JAK3, Homo sapiens, UniProt P52333)	100%
Platelet-derived growth factor receptor beta (PDGFRB, Homo sapiens, UniProt P09619)	76%
Death-associated protein kinase 3 (DAPK3, Homo sapiens, UniProt O43293)	76%
Serine/threonine-protein kinase Sgk2 (SGK2, Homo sapiens, UniProt Q9HBY8)	100%
MAP kinase-activated protein kinase 5 (MAPKAPK5, Homo sapiens, UniProt Q8IW41)	87%
Cyclin-dependent kinase 2 (CDK2, Homo sapiens, UniProt P24941)	88%
Receptor-type tyrosine-protein kinase FLT3 (FLT3, Homo sapiens, UniProt P36888, D835V)	100%
Serine/threonine-protein kinase TNNI3K (TNNI3K, Homo sapiens, UniProt Q59H18)	81%
Cyclin-dependent kinase 15 (CDK15, Homo sapiens, UniProt Q96Q40)	100%
Macrophage colony-stimulating factor 1 receptor, autoinhibited (CSF1R, Homo sapiens, UniProt P07333)	100%
Receptor-type tyrosine-protein kinase FLT3 (FLT3, Homo sapiens, UniProt P36888, D835Y)	100%
Epidermal growth factor receptor (EGFR, Homo sapiens, UniProt P00533, del747-752/P753S)	96%
MAP kinase-activated protein kinase 2 (MAPKAPK2, Homo sapiens, UniProt P49137)	100%
Tyrosine-protein kinase Lyn (LYN, Homo sapiens, UniProt P07948)	99%
Receptor tyrosine-protein kinase erbB-4 (ERBB4, Homo sapiens, UniProt Q15303)	98%
cGMP-dependent protein kinase 2 (PRKG2, Homo sapiens, UniProt Q13237)	100%

Sample 2 — cell line: mouse MPNST tumor cells; technique: high-content nuclear imaging; refers to: cell number; tested at: 10 µM; time: 12 h; setting: mean of 2 replicates; relative to: plate mean; reading: higher = more cells
SMILES	nuclei count [z-score]
COc1ccc(C(=O)Nc2c(Cl)cncc2Cl)cc1OC1CCCC1	1.6
O=C(CCCN1CC=C(n2c(=O)[nH]c3ccccc32)CC1)c1ccc(F)cc1	1.75
Nc1nccc(-c2c(-c3ccc(F)cc3)ncn2C2CCN(Cc3ccon3)CC2)n1	-1.64
O=C(NC1CCC1)c1ccc(C#Cc2cccc(F)c2)nc1	-2.68
CCN(CCCCOC(=O)c1ccc(OC)c(OC)c1)C(C)Cc1ccc(OC)cc1 (centres unmarked)	3.47
CCOC(=O)c1csc(Nc2ccc(Cl)cc2)n1	1.19

Sample 3 — effect on: enzyme activity; mode: inhibitor; tested at: 0.5 µM; relative to: control
Compound: C[S+]([O-])c1ccc(-c2nc(-c3ccncc3)c(-c3ccc(F)cc3)[nH]2)cc1 (centres unmarked)
target	remaining activity [%]
MAP kinase-interacting serine/threonine-protein kinase 2 (MKNK2, Homo sapiens, UniProt Q9HBH9)	94.4
Interleukin-1 receptor-associated kinase 4 (IRAK4, Homo sapiens, UniProt Q9NWZ3)	130
Serine/threonine-protein kinase Nek4 (NEK4, Homo sapiens, UniProt P51957)	98.2
Protein kinase C iota type (PRKCI, Homo sapiens, UniProt P41743)	95.2
Mitogen-activated protein kinase kinase kinase kinase 2 (MAP4K2, Homo sapiens, UniProt Q12851)	106
Leucine-rich repeat serine/threonine-protein kinase 2 (LRRK2, Homo sapiens, UniProt Q5S007)	100
Serine/threonine-protein kinase WNK2 (WNK2, Homo sapiens, UniProt Q9Y3S1)	103
Cyclin-dependent kinase 9, with cyclin T1 (CDK9, Homo sapiens, UniProt P50750)	83.8
Mitogen-activated protein kinase kinase kinase 10 (MAP3K10, Homo sapiens, UniProt Q02779)	104

Sample 4 — cell line: A-375; tested at: 100 µM; time: 18 h
Compound	viability [%]
CCCCCCCCOc1ccccc1C(=O)Nc1ccc(C(=O)OCC[N+](C)(CC)CC)cc1	8.21
NC(=O)Cc1cccc(C(=O)c2ccccc2)c1N	89.3
Cc1ccc(S(=O)(=O)NC(=O)NN2CCCCCC2)cc1	60.5
Nc1cc(N2CCCCC2)nc(N)[n+]1[O-]	97.8
Clc1ccc(C(Cn2ccnc2)OCc2ccc(Sc3ccccc3)cc2)c(Cl)c1 (centres unmarked)	11
